# Results collected from several papers.
# ± gives the spread as reported.
# Genome polyprotein NS2B-NS3 protease: Genome polyprotein, NS2B-NS3 protease (dengue virus type 2, UniProt P29990)
Compound,target or system,assay,test system,setting,how to read,quantity,value
CC(C)C[C@H](NC(=O)[C@H](CCCNC(=N)N)NC(=O)[C@H](Cc1ccccc1)NC(=O)[C@H](Cc1ccccc1)NC(=O)[C@@H](NC(=O)[C@H](COP(=O)(O)O)NC(=O)[C@@H](N)COP(=O)(O)O)[C@@H](C)O)C(=O)N[C@@H](Cc1ccccc1)C(=O)N[C@@H](CC(N)=O)C(=O)N[C@@H](CCCNC(=N)N)C(=O)N[C@@H](C)C(=O)N[C@@H](CCCCN)C(=O)N[C@@H](CCCNC(=N)N)C(=O)N[C@@H](Cc1c[nH]cn1)C(=O)N[C@@H](Cc1c[nH]cn1)C(=O)NCC(=O)N[C@@H](Cc1ccc(O)cc1)C(=O)N[C@@H](CCCCN)C(=O)N[C@@H](CCCNC(=N)N)C(=O)N[C@@H](CCCCN)C(=O)N[C@@H](Cc1ccccc1)C(=O)N[C@@H](Cc1c[nH]cn1)C(=O)O,,HPLC-UV,human saliva,"0.5 h, 37 °C, added: initial 1 mg/mL",,peptide concentration,0.982 mg/mL
C/C(N)=N/C(=N\S(=O)(=O)c1ccc(C(F)(F)F)cc1)N1C[C@H](c2ccccc2)C(c2ccc(Cl)cc2)=N1,,,"beagle dog, plasma","oral, 36 mg/kg",,half-life,11.6 h
CC[C@H](C)[C@@H]1NC(=O)[C@H](Cc2ccc(O)cc2)NC(=O)CCCSC[C@@H](C(=O)N(CC(=O)N[C@@H](CC(C)C)C(=O)NCC(N)=O)Cc2ccc(F)cc2)NC(=O)[C@H](CC(N)=O)NC(=O)[C@H](CCC(N)=O)NC1=O,,,human,"intranasal, 200 µg repeated doses",,drug-related headache,17%
CCCC[C@H](OC(C)=O)c1ccccc1C(=O)O,,,"beagle dogs, both sexes, whole blood","intravenous, 1.5 mg/kg single dose",,AUC(0-t),1130 ± 181 ng·h/mL
C=CC(=O)Nc1cc(Nc2nccc(-c3c[nH]c4ccccc34)n2)c(OC)cc1N(C)CCN(C)C,,storage stability,human dried blood spot,"10 d, on ice, LQC level",,recovery,59.1%
CC(C)[C@H](NC(=O)[C@H](Cc1c[nH]c2ccccc12)NC(=O)[C@H](CCCNC(=N)N)NC(=O)[C@H](CCCNC(=N)N)NC(=O)[C@@H](NC(=O)[C@@H](NC(=O)[C@H](CCCNC(=N)N)NC(=O)[C@@H](NC(=O)[C@@H](NC(=O)[C@H](CCCNC(=N)N)NC(=O)[C@H](CCCNC(=N)N)NC(=O)[C@@H](NC(=O)[C@H](Cc1c[nH]c2ccccc12)NC(=O)[C@H](CCCNC(=N)N)NC(=O)[C@H](CCCNC(=N)N)NC(=O)[C@@H](NC(=O)[C@H](CCCNC(=N)N)NC(=O)[C@H](CCCNC(=N)N)NC(=O)[C@@H](NC(=O)[C@H](Cc1c[nH]c2ccccc12)NC(=O)[C@H](CCCNC(=N)N)NC(=O)[C@@H](N)CCCNC(=N)N)C(C)C)C(C)C)C(C)C)C(C)C)C(C)C)C(C)C)C(C)C)C(=O)N[C@@H](CCCNC(=N)N)C(=O)N[C@@H](CCCNC(=N)N)C(=O)O,,,CD-1 mice,"intravenous, 15 mg/kg, 6-24 h",,urinary glucose excretion,114 µg/day/g body weight
COc1cccc(OC)c1-c1cc(C(=O)NC2(C(=O)O)C3CC4CC(C3)CC2C4)nn1-c1ccc(C(=O)NCCNC(=O)[C@H](CCCCNC(=O)[C@H](CC(C)C)NC(=O)C2OC2C(=O)O)NC(=O)CN2CCN(CC(=O)[O-])CCN(CC(=O)[O-])CCN(CC(=O)[O-])CC2)cc1C(C)C.[177Lu+3] (mixture of isomers),,,"mouse, HT-29 xenograft","168 h post injection, biodistribution",reference: tumour over liver uptake,tumour-to-liver ratio,1.76
CCCCN1C(=O)c2cccc3c(NCCCCCN4CCOCC4)ccc(c23)C1=O,,,DMF,,,absorption maximum,440 nm
CCn1c(C)c(Cc2ccc(Cl)c(O[C@H](C)C(=O)O)c2)c2ccc(C(=O)N[C@@H](C)c3ccc(C(C)(C)C)cc3)cc21,,metabolic stability,"mouse, liver microsomes",,,half-life,> 1 h
CN1CCC[C@]1(C)/C=C/S(=O)(=O)NC(=O)Nc1c2c(cc3c1CCC3)CCC2,,item: nervous system disorders,human,"oral, 100 mg twice daily, 14 days, multiple ascending dose",,subjects with adverse event,0%
C=C(NC(=O)c1csc(-c2nc3c(cc2O)-c2nc(cs2)C(=O)NC(C(C)O)C(=O)NC(=C(C)OC)c2nc(cs2)C(=O)NC2c4nc(cs4)C(=O)NC(COC(=O)c4c5c6c(cccc6n4O)COC(=O)C(OC4CC(C)(O)C(N(C)C)C(C)O4)C2OC5)c2nc-3cs2)n1)C(N)=O (stereo not shown),,,"cynomolgus monkey, male, plasma","intravenous infusion, 3 mg/kg multiple doses, day 7",,MRT(0-last),1.6 h
O=C(Nc1cnccc1-c1ccc([18F])cc1)c1ccnc(NC(=O)C2CC2)c1,,ex vivo gamma counting,"GSK-3β transgenic mice, early-stage, adipose tissue","intravenous, 120 min, added: tariquidar 15 mg/kg iv",,mean SUV,0.2
Cc1nc(N)nc2c1C(=O)N[C@@H](c1ccc(F)cc1-c1cccc(O[11CH3])n1)C2,,ex vivo biodistribution,"mice, U87 subcutaneous xenograft, bone","60 min post-injection, baseline, vehicle pre-treatment",,tracer uptake,9.3 ± 4.7 %ID
C=CC(=O)N1CC2(CCN(c3nc(OC4CCN(CCCOC)CC4)nc4c(OCC(F)(F)F)c(-c5c(C)ccc6[nH]ncc56)c(C5CC5)cc34)CC2)C1,"GTPase KRas, GDP-bound (KRAS, Homo sapiens, UniProt P01116, G13D)",SPR,,,,Kd,1.11 ± 0.23 µM
[2H]C1([2H])CC[C@@H](C[C@@H](C#N)NC(=O)[C@@H]2[C@@H]3[C@H](CN2C(=O)[C@@H](NC(=O)C(F)F)C(C)(C)C)C3(C)C)C(=O)N1,,,human liver microsomes,microsomes 0.5 mg/mL,,intrinsic clearance,17 µL/min/mg
O=Cc1c(O)c(C=O)c(O)c(C=O)c1O,,"chemical stability, HPLC-MS",borate buffered saline,"pH 10.2, no N-acetyl-lysine",,degradation rate constant,0 h⁻¹
COC1C=COC2(C)Oc3c(C)c(O)c4c(c3C2=O)C2=NC3(CCN(CC(C)C)CC3)NC2=C(NC(=O)C(C)=CC=CC(C)C(O)C(C)C(O)C(C)C(OC(=O)c2cncnc2)C1C)C4=O (stereo not shown),,,"CD-1 mouse female, plasma","intravenous, 5 mg/kg",,clearance,3.92 mL/min/kg
Cc1ncsc1-c1ccc(C(C)NC(=O)C2CC(O)CN2C(=O)C(NC(=O)CCCCCCCCCCN2CCCC(Nc3ncc(Cl)c(Nc4ccccc4S(=O)(=O)C(C)C)n3)C2)C(C)(C)C)cc1 (stereo not shown),22Rv1,"RNA-seq, item: PCLO mRNA",,concentration not given,reference: DMSO,log2 fold change,-1.57
CCCC[C@H](NC(=O)COCCOCCNC(=O)CN1CCN(CC(=O)O)CCN(CC(=O)O)CC1)C(=O)N[C@H]1CC(=O)NCCCC[C@@H](C(N)=O)NC(=O)[C@H](Cc2c[nH]c3ccccc23)NC(=O)[C@H](CCCNC(=N)N)NC(=O)[C@@H](Cc2ccccc2)NC(=O)[C@H](Cc2c[nH]cn2)NC1=O [fluorine-18 labelled],,,"C57 mice, B16/F10 melanoma, urine","intravenous, 0.37 MBq, 0.5 h",,urinary excretion,68.5 ± 3.74%
CC(C)(O)c1ncc([S@](N)(=O)=NC(=O)Nc2c3c(cc4c2CCC4)CCC3)s1,,,healthy human,"oral, 300 mg single dose, capsule formulation",,nervous system adverse events,17%
CN1C(=O)[C@@H](Cc2ccc(O)c(I)c2)NC(=O)CNC(=O)[C@H](Cc2ccc3ccccc3c2)NC(=O)[C@H](CCCNC(=N)N)NC(=O)[C@H]1CCCNC(=O)c1ccc(CNC(=O)CN2CCN(CC(=O)O)CCN(CC(=O)O)CCN(CC(=O)O)CC2)cc1 [lutetium-177 labelled],,1,"human, extrapolated from mouse, Urinary bladder wall",,,total absorbed dose,0.001 mGy/MBq
CCCCN1C(=O)c2cccc3c(NCCCCCCCCCCN4CCOCC4)ccc(c23)C1=O,,,DMSO,,,fluorescence lifetime,10.2 ns
C[n+]1ccc(/C=N/NC(=O)c2cc(C(=O)N/N=C/c3cc[n+](C)c4ccccc34)ncn2)c2ccccc21,telomeric G4 DNA hybrid-2,FRET melting,,"1 µM, DNA 0.2 µM",,ΔTm,4.6 ± 0.4 °C
CN1CCC[C@]1(C)/C=C/S(=O)(=O)NC(=O)Nc1c2c(cc3c1C(O)CC3)CCC2 (stereo partly shown),,,"human, plasma","oral, 100 mg twice daily of parent drug, metabolite of dosed drug",reference: day 14 over day 1,AUC(0-tau) accumulation ratio,1.7
NCc1ccc(CNC(=O)c2cc(-c3ccccc3)n(-c3ccccc3)n2)cc1,Genome polyprotein NS2B-NS3 protease,reporter gene,HeLa,,,EC50,17 µM
CN1CCC[C@]1(C)/C=C/S(=O)(=O)NC(=O)Nc1c2c(cc3c1CCC3)CC=C2,,,"human, plasma","oral, 12.5 mg twice daily of parent drug, metabolite of dosed drug",reference: day 14 over day 1,AUC(0-tau) accumulation ratio,2.2
COC1CN([C@H]2CC[C@H]([C@@]3(C)Oc4c(Cl)cc(C(=O)NCc5c(SC)cc(C)[nH]c5=O)c(C)c4O3)CC2)C1,,"RNA-seq, item: LGR4","human, whole blood","dose not given, 24 h",reference: pretreatment baseline,log2 fold change,1.36
O=C(Nc1cnccc1-c1ccc([18F])nc1)c1ccnc(NC(=O)C2CC2)c1,,PET imaging,"FVB/NJ mice, both sexes, liver","intravenous, 10 min, added: tariquidar 15 mg/kg iv, ≥2 h before",,median SUV,7.94
CC(C)(F)CC(NC(c1ccc(-c2ccc(S(C)(=O)=O)cc2)cc1)C(F)(F)F)C(=O)NCC#CBr (stereo not shown),,,PBS,"100 µM, 23 h, pH 7.45, 37 °C, added: GSH 5 mM",,GSH adduct formation,47%
CN(C(=O)C(C)(C)c1cc(C(F)(F)F)cc(C(F)(F)F)c1)c1cnc(N2C[C@H]3COC(O)CN3C[C@H]2CO)cc1-c1ccc(F)cc1CO (stereo partly shown),,,"human male, plasma","oral, 120 mg, AUC(0-inf) based",,share of total plasma radioactivity,~5.3%
Nc1ccc(-c2ccc(F)cc2)cc1NC(=O)C1CCOCC1,,,"C57BL/6 mouse, male, plasma","intraperitoneal, 10 mg/kg",,absorption rate constant,6 h⁻¹
CCCCCCCCCCCCCCCOC(=O)/C=C/c1cccc(O)c1,,,red blood cells,concentration not given,reference: Triton X-100,hemolysis,0.54%
CCCCN1C(=O)c2cccc3c(NCCN4CCOCC4)ccc(c23)C1=O,,,toluene,,,absorption maximum,420 nm
CC(C)=CCC1=C([O-])C(=O)c2ccccc2C1=O.CC(C)=CCC1=C([O-])C(=O)c2ccccc2C1=O.[Zn+2].c1ccc(-c2ccnc3c2ccc2c(-c4ccccc4)ccnc23)cc1,,cyclic voltammetry,dichloromethane,"0.1 mM, added: 0.1 M Bu4NPF6",reference: Ag/AgCl in saturated KOH,cathodic peak potential,-1.31 V
N#C[C@@H]1CC(F)(F)CN1C(=O)CNC(=O)c1ccnc2c(NC(=O)[C@H](CCCCNC(=O)CCOCCOCCOCCOCCOCCOCCNC(=O)CN3CCN(CC(=O)[O-])CCN(CC(=O)[O-])CCN(CC(=O)[O-])CC3)NC(=O)CCCc3ccc(I)cc3)cccc12.[177Lu+3],U-87 MG tumour model,,"host not given, blood","96 h, tumour-bearing",,tracer uptake,0.14 %ID/g
CCCCN1C(=O)c2cccc3c(NCCCCCCN4CCOCC4)ccc(c23)C1=O,,,dioxane,,,absorption maximum,428 nm
N#Cc1ccc(CNC(=O)c2cc(-c3ccccc3)n(-c3ccccc3)n2)cc1,Genome polyprotein NS2B-NS3 protease,reporter gene,HeLa,,,EC50,20 µM
